Published values collected from several papers.
Every numbered part comes from another study and shows a few of its results, in no order. Changes are numbered by the printed parent chain.

Sample 1 — method: RNAcompete; molecule type: RNA; medium: in vitro; tested at: 20 nM; setting: 7-mer, probes averaged, single round; relative to: mean of 7-mers; reading: higher = stronger binding; endpoint: 7-mer Z-score
Target: PABPC1L2, full length, GST fusion (mouse, UniProt A0ABA7IW68)
Target sequence (chain): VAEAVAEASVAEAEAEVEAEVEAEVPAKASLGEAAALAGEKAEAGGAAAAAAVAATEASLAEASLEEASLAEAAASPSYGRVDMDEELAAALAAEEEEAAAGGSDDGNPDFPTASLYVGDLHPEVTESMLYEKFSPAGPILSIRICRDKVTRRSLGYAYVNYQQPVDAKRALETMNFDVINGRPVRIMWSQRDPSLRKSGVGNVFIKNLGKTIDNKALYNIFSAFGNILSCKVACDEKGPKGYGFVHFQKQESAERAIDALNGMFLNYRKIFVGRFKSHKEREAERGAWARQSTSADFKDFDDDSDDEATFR
Strand = UUUCCCU; value = -0.423
Strand = ACAACCC; value = -0.229
Strand = UACCCCA; value = -0.373
Strand = UCGAUCG; value = -0.184
Strand = GCAAGCA; value = -0.161
Strand = GGACACU; value = 0.0497
Strand = ACCAUCA; value = -0.233
Strand = CUGUAGG; value = -0.132

Sample 2 — Variant: H55V; method: DHFR PCA, deep sequencing; medium: yeast; relative to: wild-type fitted maximum; reading: higher = stronger binding; endpoint: relative binding score
Target: ABI1, truncated, D143A, DHFR fusion (Arabidopsis thaliana)
Setting: methotrexate growth selection, single substitutions
Starting sequence: PYL1, truncated, DHFR fusion (Arabidopsis thaliana); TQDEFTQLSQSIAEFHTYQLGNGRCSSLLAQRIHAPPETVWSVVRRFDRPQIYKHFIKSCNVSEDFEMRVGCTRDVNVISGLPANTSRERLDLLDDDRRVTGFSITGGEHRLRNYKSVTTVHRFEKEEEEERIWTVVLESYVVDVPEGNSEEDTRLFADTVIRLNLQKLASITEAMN; partner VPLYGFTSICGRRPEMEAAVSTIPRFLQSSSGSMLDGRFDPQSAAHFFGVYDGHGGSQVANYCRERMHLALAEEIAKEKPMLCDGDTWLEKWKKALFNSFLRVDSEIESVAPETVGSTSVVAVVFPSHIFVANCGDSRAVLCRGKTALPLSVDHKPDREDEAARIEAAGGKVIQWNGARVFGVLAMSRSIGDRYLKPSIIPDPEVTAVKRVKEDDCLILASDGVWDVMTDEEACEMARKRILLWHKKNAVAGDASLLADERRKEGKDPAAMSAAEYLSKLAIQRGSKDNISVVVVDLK
setting = together with: (+)-ABA 200 µM; value = 106%
setting = together with: (+)-ABA 4.8 µM; value = 96.1%
setting = together with: (+)-ABA 0 µM; value = 37.1%
setting = together with: (+)-ABA 0.11 µM; value = 66%
setting = together with: (+)-ABA 0.0091 µM; value = 43.2%
setting = together with: (+)-ABA 0.39 µM; value = 92%

Sample 3 — organism: Saccharomyces cerevisiae; observed: binding; method: competitive growth deep sequencing; molecule type: peptide; strain: cyclin D3-Cln2 fusion strain; tested at: concentration not given; setting: peptide tiling library; reading: direction not given; endpoint: growth enrichment score
Molecule = QNPCGSKACRRLFGPV; value = -0.264
Molecule = FQDSGYNELKSCSFDN; value = -0.109
Molecule = LENIEPLQVSFAVLSS; value = -0.388
Molecule = NFETPEAETPIRSPFK; value = 0.525
Molecule = TSPGPVLLHPSPSTTQ; value = 0.554
Molecule = RNRGPKLNAMLRLGVL; value = -1.51
Molecule = VRDLSYRLVFLACCVA; value = -0.276
Molecule = SDSTVTKLDFDLEP; value = 0.306

Single results of other studies
Starting sequence: PafA, mature enzyme, eGFP fusion (Elizabethkingia meningoseptica, UniProt Q9KJX5); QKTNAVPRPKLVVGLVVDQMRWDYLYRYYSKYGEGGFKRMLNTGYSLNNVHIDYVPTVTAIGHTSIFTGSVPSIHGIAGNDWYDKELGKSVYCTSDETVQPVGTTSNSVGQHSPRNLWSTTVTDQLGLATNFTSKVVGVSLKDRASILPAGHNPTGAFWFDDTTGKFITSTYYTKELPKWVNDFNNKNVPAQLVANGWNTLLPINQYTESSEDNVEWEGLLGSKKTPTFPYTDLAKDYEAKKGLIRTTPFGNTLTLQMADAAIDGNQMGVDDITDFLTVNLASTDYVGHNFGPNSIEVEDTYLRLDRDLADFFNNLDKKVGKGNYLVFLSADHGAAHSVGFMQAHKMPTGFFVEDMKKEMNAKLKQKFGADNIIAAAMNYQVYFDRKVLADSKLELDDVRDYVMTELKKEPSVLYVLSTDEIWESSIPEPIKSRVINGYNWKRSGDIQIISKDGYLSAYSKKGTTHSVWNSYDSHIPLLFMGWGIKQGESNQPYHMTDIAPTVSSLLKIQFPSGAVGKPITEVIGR
Variant = I204V; target = vanadate, free oxyanion; test = microfluidic competitive inhibition; test system = in vitro, cell-free expressed; setting = not given, derived from inhibition constants, unchanged parent 676 nM; scale = lower = stronger binding; endpoint = oxyanion analog dissociation constant; value = 777 nM

Repeated from above (sample 1):
Strand = UUUCCCU; value = -0.423
Strand = GGACACU; value = 0.0497
Strand = CUGUAGG; value = -0.132
Strand = UACCCCA; value = -0.373
